Assay results gathered from unrelated publications.
Protocols differ between the studies behind these lines. Several values in a cell are separate wells, animals, samples, runs or records. Numbers after ± are the reported error.

Compound	assay	system	conditions	how to read	measurement	result
CN1C(=O)[C@@H](Cc2ccc(O)c(I)c2)NC(=O)CNC(=O)[C@H](Cc2ccc3ccccc3c2)NC(=O)[C@H](CCCNC(=N)N)NC(=O)[C@H]1CCCNC(=O)c1ccc(CNC(=O)CN2CCN(CC(=O)O)CCN(CC(=O)O)CCN(CC(=O)O)CC2)cc1 [lutetium-177 labelled]	2	human, extrapolated from mouse, gallbladder wall	–	–	total absorbed dose	0.011 mGy/MBq
CCC1CNC(CC)CN(C(C(=O)[O-])c2ccc(C(=O)[O-])cc2)C(CC)CN(CC(=O)[O-])C(CC)CN1.[Mn+2] (centres unmarked)	ICP-MS	BALB/c mouse, heart	intravenous, 0.05 mmol/kg, 30 min, without anaesthesia	–	Mn content	0.84 ± 0.14 µg/g
CN(Cc1ccccc1)C(=O)CN1CCN(CC(=O)[O-])CCN(CC(=O)N(C)Cc2ccccc2)CC1.[44Sc+3]	–	mouse, lung	intravenous, 1 h	–	tracer uptake	1.23 %ID/g
Nc1nnc(-c2ccccc2O)cc1N1CC2CCC(C1)N2c1ccnc(C#CCCN2CCCCCC2)c1	–	mouse	oral, 10 mg/kg	–	unbound Cmax	0.0014 µM
COc1cccc(OC)c1-c1cc(C(=O)NC2(C(=O)O)C3CC4CC(C3)CC2C4)nn1-c1ccc(C(=O)N(C)CCCN(C)C(=O)[C@H](CCCCNC(=O)[C@H](CC(C)C)NC(=O)C2OC2C(=O)O)NC(=O)CN2CCN(CC(=O)[O-])CCN(CC(=O)[O-])CCN(CC(=O)[O-])CC2)cc1C(C)C.[177Lu+3] (mixture of isomers)	–	mouse, HT-29 xenograft	4 h post injection, biodistribution	relative to: tumour over muscle uptake	tumour-to-muscle ratio	13.2
CC(C)c1cnc(-c2cc(Cl)ccc2F)cc1Nc1ccncc1C(=O)NC(CO)CO	–	female C57BL/6 mice, plasma	oral, 100 mg/kg twice daily, day 1, MC-38 tumour-bearing	–	unbound Cmax	0.322 µM
OCC1OC(n2cnc3c(NCc4ccc(Br)s4)ncnc32)C(O)C1O (centres unmarked)	–	Sprague-Dawley rat, both sexes	oral, 100 mg/kg, single dose	–	body temperature decrease	1 to 2 °C
CN([O-])C(=O)CN1CCN(CC(=O)N(C)[O-])CCN(CC(=O)N(C)[O-])CC1.[89Zr+4]	radio-TLC	human serum	2 days, run 2	–	intact complex	100%
COc1ccccc1/C=C/CNCC(O)COc1ccc(Nc2ccccc2)cc1 (racemic)	–	mouse, plasma	intraperitoneal, 10 mg/kg	–	MRT(0-inf)	8.24 h
O=C(CCCCCCCCCCCCCCCCC(=O)Oc1c2n(cc(C(=O)NCc3c(F)cc(F)cc3F)c1=O)CC1OC3CCC(C3)N1C2=O)Oc1c2n(cc(C(=O)NCc3c(F)cc(F)cc3F)c1=O)CC1OC3CCC(C3)N1C2=O (centres unmarked)	–	dog plasma	1 µM, 24 h, 1% methanol	–	prodrug hydrolysed	45%
CCCCCCCCCCCCCCCC(=O)N[C@@H](CCCCN)C(=O)N[C@@H](CCCCN)C(=O)N[C@@H](CO)C(=O)N[C@@H](CCCNC(=N)N)C(=O)N[C@@H](C)C(=O)N[C@@H](CC(C)C)C(=O)N[C@@H](Cc1ccccc1)C(N)=O	–	human patients, plasma	intravenous, 0.3 mg/kg over 2 h	–	Vss	0.14 L/kg
CC(C)(C)NCC(SS(=O)(=O)O)c1ccccc1 (centres unmarked)	–	Swiss Webster mice, Schistosoma mansoni-infected	200 mg/kg single dose on day 42 post-infection, perfusion day 56 post-infection	–	body weight	37.3 g
C/C(N)=N/C(=N\S(=O)(=O)c1ccc(C(F)(F)F)cc1)N1C[C@H](c2ccccc2)C(c2ccc(Cl)cc2)=N1	–	C57BL/6 mouse, brain	intravenous, 10 mg/kg	–	AUC(0-inf)	0.537 µg·h/mL
CN(O)C(=O)CCC(=O)NCCCN(CCCCN(CCCNC(=O)CCC(=O)N(C)O)C(=O)CCC(=O)N(C)O)C(=O)CCC(=O)N(C)O.[89Zr]	–	mouse, bone	1 h	–	tracer uptake	0.12 %ID/g
CN(Cc1ccccc1)C(=O)CN1CCN(CC(=O)[O-])CCN(Cc2cccc(C(=O)[O-])n2)CC1.[177Lu+3]	–	mouse, heart	intravenous, 1 h	–	tracer uptake	0.26 %ID/g
C=C(NC(=O)c1csc(-c2nc3c(cc2O)-c2nc(cs2)C(=O)NC(C(C)O)C(=O)NC(=C(C)OC)c2nc(cs2)C(=O)NC2c4nc(cs4)C(=O)NC(COC(=O)c4c5c6c(cccc6n4O)COC(=O)C(OC4CC(C)(O)C(N(C)C)C(C)O4)C2OC5)c2nc-3cs2)n1)C(N)=O (centres unmarked)	–	ICR mice, Streptococcus pneumoniae ATCC 49169 infected, immunocompromised, blood	intravenous, 2 mg/kg/day three times daily	–	Cmax	31.9 ng/mL
COc1cccc(OC)c1-c1cc(C(=O)NC2(C(=O)O)C3CC4CC(C3)CC2C4)nn1-c1ccc(C(=O)N(C)CCOCCOCCN(C)C(=O)[C@H](CCCCNC(=O)[C@H](CC(C)C)NC(=O)C2OC2C(=O)O)NC(=O)CN2CCN(CC(=O)[O-])CCN(CC(=O)[O-])CCN(CC(=O)[O-])CC2)cc1C(C)C.[177Lu+3] (mixture of isomers)	–	mouse, HT-29 xenograft, heart	168 h post injection	–	tissue uptake	0.15 %ID/g
N#C[C@@H]1CCCN1C(=O)CNC(=O)c1ccnc2ccc(OCCCN3CCN(C(=O)CCc4ccc(O)c(CN5CCN6CC(=O)[O][Al-]([18F])([O]C(=O)C5)[O]c5ccc(CCC(=O)N7CCN(CCCOc8ccc9nccc(C(=O)NCC(=O)N%10CCC[C@H]%10C#N)c9c8)CC7)cc5C6)c4)CC3)cc12 (some centres unmarked)	–	BALB/c nude mice, U-87 MG tumour	120 min post-injection	relative to: tumour over blood	tumour-to-organ ratio	11.3 ± 0.48
COc1cccc(OC)c1-c1cc(C(=O)NC2(C(=O)O)C3CC4CC(C3)CC2C4)nn1-c1ccc(C(=O)N(C)CCCN(C)CCCN(C)C(=O)[C@H](CCCCNC(=O)[C@H](CC(C)C)NC(=O)C2OC2C(=O)O)NC(=O)CN2CCN(CC(=O)[O-])CCN(CC(=O)[O-])CCN(CC(=O)[O-])CC2)cc1C(C)C.[177Lu+3] (mixture of isomers)	–	mouse, HT-29 xenograft, lung	4 h post injection	–	tissue uptake	2.7 %ID/g

Compound	assay	system	conditions	how to read	measurement	result
Cc1cc(C)n(CCN(CCN)CCCCCCNC(=O)[C@@H](N)Cc2c[nH]cn2)n1.[99Tc+].[C-]#[O+].[C-]#[O+].[C-]#[O+]	–	BALB/c nude mice, MCF7 xenograft, bone	intravenous, 15 min	–	tissue uptake	0.57 ± 0.08 %IA/g
O=C([O-])CN1CCN(CC(=O)O)CCN(CC(=O)[O-])CCN(CC(=O)O)CC1.[64Cu+2]	dynamic PET	rat, chronic myocardial infarction	intravenous, dose not given	–	time to infarct accumulation	≤ 1 min
CCc1cnc(NC(=O)c2cc(S(=O)(=O)N3CCOCC3)ccc2N(C)C2CCCC2)s1	–	mouse, blood	10 mg/kg, 3 doses	–	Lymphocytes absolute count	4740 µL⁻¹
Cc1noc(C)c1Cn1cc(N2C(=O)CN(Cc3cccc(O[C@@H]4O[C@H](C(=O)O)[C@@H](O)[C@H](O)[C@H]4O)c3)C2=O)cn1	–	Sprague-Dawley rat, male	oral, 100 mg/kg of parent drug, 12 h	–	plasma concentration	324 ng/mL
CC(C)n1ncc2c(C(=O)NC[C@@H](C)N)cc(C3CC3)nc21	–	female BALB/c mouse, plasma	intraperitoneal, 30 mg/kg, 30 min	–	concentration	1360 ng/mL
O=C([O-])CN1CCN(CC(=O)[O-])CCN(Cc2cccc(C(=O)[O-])n2)CC1.[177Lu+3]	–	mouse, stomach	intravenous, 1 h	–	tracer uptake	0.36 %ID/g
N#C[C@@H]1CC(F)(F)CN1C(=O)CNC(=O)c1ccnc2c(NC(=O)[C@@H](N)CCCCNC(=O)CCOCCOCCOCCOCCOCCOCCNC(=O)CN3CCN(CC(=O)[O-])CCN(CC(=O)[O-])CCN(CC(=O)[O-])CC3)cccc12.[177Lu+3]	–	mouse, U-87 MG tumour xenograft, salivary gland	48 h	–	tissue uptake	0.08 ± 0.02 %ID/g
CC(C(=O)O)n1nc(Cn2cc3cc(OCC[18F])c(Cl)cc3n2)c2ccccc2c1=O (racemic)	–	rat, kidney	1 h	–	tracer uptake	0.38 %ID/g
Cc1nn(-c2nc3c(F)cc(F)cc3s2)c(O)c1C(c1ccc(C(F)(F)F)cc1)c1c(C)nn(-c2nc3c(F)cc(F)cc3s2)c1O	–	ICR mouse, plasma	oral, 50 mg/kg	–	elimination rate constant	0.116 h⁻¹ and 0.248 h⁻¹ and 0.2 h⁻¹
CN(Cc1ccccc1)C(=O)CN1CCN(CC(=O)[O-])CCN(CC(=O)[O-])CC1.[18F-].[Sc+3]	–	mouse, spleen	intravenous, 1 h	–	tracer uptake	0.17 %ID/g
CCCCN1C(=O)c2cccc3c(NCCCCCN4CCOCC4)ccc(c23)C1=O	–	chloroform	–	–	fluorescence quantum yield	1.09
O=C(Nc1cnccc1-c1ccc([18F])cc1)c1ccnc(NC(=O)C2CC2)c1	ex vivo gamma counting	GSK-3β transgenic mice, late-stage, skin	intravenous, 120 min, mean, P-gp inhibitor pretreatment, together with: tariquidar 15 mg/kg iv	–	SUV	0.27
COc1ccccc1NC(=O)OC1C(C)C(OC)C=COC2(C)Oc3c(C)c(O)c4c(c3C2=O)C2=NC3(CCN(CC(C)C)CC3)NC2=C(NC(=O)C(C)=CC=CC(C)C(O)C(C)C(O)C1C)C4=O (centres unmarked)	–	CD-1 mouse female, plasma	intravenous, 5 mg/kg	–	elimination rate constant	0.045 h⁻¹
CC(C)(O)c1ccc(N2Cc3c(ccnc3-c3ccc(F)cc3OCC(F)(F)F)C2=O)cc1	–	male C57BL/6 mouse, plasma	oral, 30 mg/kg, 6 h	–	concentration	6120 ng/mL
C=CC(=O)Nc1cc(Nc2nccc(-c3c[nH]c4ccccc34)n2)c(OC)cc1N(C)CCN(C)C	storage stability	human plasma	5 h, -80 °C, high QC level	–	recovery	90.3%
CN(Cc1ccccc1)C(=O)CN1CCN(CC(=O)N(C)Cc2ccccc2)CCN(Cc2cccc(C(=O)[O-])n2)CC1.[44Sc+3]	–	mouse, brain	intravenous, 1 h	–	tracer uptake	0.08 %ID/g
OC1(C(F)(F)F)CCN(c2nc(Nc3ccnc(C(F)(F)F)c3)nc(-c3cccc(C(F)(F)F)n3)n2)C1 (centres unmarked)	–	Sprague-Dawley rat, both sexes, plasma	oral gavage, 5 mg/kg, day 1	–	AUC(0-t)	6.1 ± 0.654 µg·h/mL
CC[C@H](C)[C@@H]1NC(=O)[C@H](Cc2ccc(O)cc2)NC(=O)CCCSC[C@@H](C(=O)N(CC(=O)N[C@@H](CC(C)C)C(=O)NCC(N)=O)Cc2ccc(F)cc2)NC(=O)[C@H](CC(N)=O)NC(=O)[C@H](CCC(N)=O)NC1=O	–	healthy human, plasma	intranasal, 50 µg every 3 h, after second dose	–	Cmax	0.044 ng/mL
O=C(Nc1cnccc1-c1ccc([18F])nc1)c1ccnc(NC(=O)C2CC2)c1	ex vivo gamma counting	GSK-3β transgenic mice, early-stage, eyes	intravenous, 120 min, mean, P-gp inhibitor pretreatment, together with: tariquidar 15 mg/kg iv	–	SUV	0.072

Repeated from above:
Compound	assay	system	conditions	how to read	measurement	result
CN(Cc1ccccc1)C(=O)CN1CCN(CC(=O)N(C)Cc2ccccc2)CCN(Cc2cccc(C(=O)[O-])n2)CC1.[44Sc+3]	–	mouse, brain	intravenous, 1 h	–	tracer uptake	0.08 %ID/g
OC1(C(F)(F)F)CCN(c2nc(Nc3ccnc(C(F)(F)F)c3)nc(-c3cccc(C(F)(F)F)n3)n2)C1 (centres unmarked)	–	Sprague-Dawley rat, both sexes, plasma	oral gavage, 5 mg/kg, day 1	–	AUC(0-t)	6.1 ± 0.654 µg·h/mL
CC[C@H](C)[C@@H]1NC(=O)[C@H](Cc2ccc(O)cc2)NC(=O)CCCSC[C@@H](C(=O)N(CC(=O)N[C@@H](CC(C)C)C(=O)NCC(N)=O)Cc2ccc(F)cc2)NC(=O)[C@H](CC(N)=O)NC(=O)[C@H](CCC(N)=O)NC1=O	–	healthy human, plasma	intranasal, 50 µg every 3 h, after second dose	–	Cmax	0.044 ng/mL
O=C(Nc1cnccc1-c1ccc([18F])nc1)c1ccnc(NC(=O)C2CC2)c1	ex vivo gamma counting	GSK-3β transgenic mice, early-stage, eyes	intravenous, 120 min, mean, P-gp inhibitor pretreatment, together with: tariquidar 15 mg/kg iv	–	SUV	0.072
